# Measurements from different studies.
# Every numbered part comes from another study and shows a few of its results, in no order. Substitutions count along the parent as printed.

# Sample 1
# Target: ABI1, truncated, D143A, DHFR fusion (Arabidopsis thaliana)
# Method: DHFR PCA, deep sequencing
# Matrix: yeast
# Notes: methotrexate growth selection, single substitutions
# With: (+)-ABA 0 µM
# Reference: wild-type fitted maximum
# Reading: higher = stronger binding
# Starting sequence: PYL1, truncated, DHFR fusion (Arabidopsis thaliana); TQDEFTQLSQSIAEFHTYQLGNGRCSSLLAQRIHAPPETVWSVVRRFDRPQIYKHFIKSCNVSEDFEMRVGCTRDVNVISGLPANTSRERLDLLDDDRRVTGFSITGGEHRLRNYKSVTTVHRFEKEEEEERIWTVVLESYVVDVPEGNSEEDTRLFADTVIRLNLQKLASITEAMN; partner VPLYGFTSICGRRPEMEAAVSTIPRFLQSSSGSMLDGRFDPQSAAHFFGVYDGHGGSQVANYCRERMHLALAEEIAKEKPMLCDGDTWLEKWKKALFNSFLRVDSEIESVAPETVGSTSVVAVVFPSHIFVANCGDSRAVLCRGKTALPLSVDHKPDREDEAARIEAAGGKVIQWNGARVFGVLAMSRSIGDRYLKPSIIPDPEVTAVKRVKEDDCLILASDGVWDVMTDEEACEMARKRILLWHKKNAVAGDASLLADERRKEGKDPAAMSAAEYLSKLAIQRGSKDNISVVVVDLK
Substitution,relative binding score [%]
L82P,5.4
V142D,1.13
F5T,6.41
I57N,-1.3
R132C,30
E152D,16.6

# Sample 2
# Target: CCNB3, cyclin fold, Cln2 fusion (human)
# Method: yeast growth competition, sequencing
# Matrix: yeast
# Notes: weak parent motif
# Reference: not given
# Reading: higher = stronger binding
# Starting sequence: ORC1 docking peptide (human); PRARKRLELGNLG
Substitution,normalised enrichment score
L12Q,0.218
P1A,0.622
R4L,0.23
L12R,-0.355
N11R,0.177
G13F,-0.104
R6Q,0.0547
G10I,0.225

# Sample 3
# Target: Interferon regulatory factor 3, full length, phosphomimetic (IRF3, Homo sapiens, UniProt Q14653, residues 1-427, S386D/S396D/S398D/S402D/T404D/S405D)
# Sequence of UniProt Q14653 (whole entry, unmodified, looked up): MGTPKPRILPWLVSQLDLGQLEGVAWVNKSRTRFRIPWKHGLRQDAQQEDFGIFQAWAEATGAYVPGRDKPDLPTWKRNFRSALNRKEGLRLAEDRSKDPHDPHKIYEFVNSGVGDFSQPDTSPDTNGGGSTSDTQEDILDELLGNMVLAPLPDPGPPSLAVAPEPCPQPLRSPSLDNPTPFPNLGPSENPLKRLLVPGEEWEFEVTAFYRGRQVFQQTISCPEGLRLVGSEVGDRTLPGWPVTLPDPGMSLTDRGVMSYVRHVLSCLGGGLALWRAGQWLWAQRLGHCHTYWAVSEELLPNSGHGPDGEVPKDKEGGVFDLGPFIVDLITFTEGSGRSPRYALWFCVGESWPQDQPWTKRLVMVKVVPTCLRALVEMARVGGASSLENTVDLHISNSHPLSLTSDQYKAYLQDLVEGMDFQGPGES
# Method: protein-binding microarray
# Form: double-stranded DNA, one strand shown
# Matrix: in vitro
# Tested at: 2540 nM top
# Notes: 60-bp whole probe
# With: salmon DNA 0.4 mg/ml
# Reference: random background probes
# Reading: higher = stronger binding
# Shared flanks, not repeated: GCCTAGCAC … GTCTTGATTCGCTTGACGCTGCTG
Strand,fitted relative affinity
TTAGGTATCGGGACTGGGTCAGTGCTA,1.19 z-score
GACGGTCTCGGATTCGGGACGTGCTAG,1.64 z-score
TTAGATTTCGGGACTGGAATAGTGCTA,1.64 z-score
TTAGGTTTCGACTTTCGTTTAGTGCTA,3.77 z-score
TCAGATCTCAGACTGGATTAGTGCTAG,0.889 z-score
GACGGTATCGGTTTAGGGACGTGCTAG,5.27 z-score
TCTTCCTTTACTTTCTTTTTGTGCTAG,3.02 z-score

# Other studies, line by line
Molecule,target,assay,system,setting,how to read,measurement,result
"PhoQ, residues 284 288 289 292 302 303 GANMMA","PhoP, residues 12 14 15 18 19 VHSCL (Escherichia coli, UniProt P23836)","Sort-seq, refers to: YFP reporter",E. coli,"PhoQ-PhoP variant library, with: 10 µM Mg2+","reference: high Mg2+ state, higher = stronger signaling",fold induction,1.75

# Excerpt of the above (sample 3):
Strand,fitted relative affinity
TCTTCCTTTACTTTCTTTTTGTGCTAG,3.02 z-score
GACGGTATCGGTTTAGGGACGTGCTAG,5.27 z-score
